Measurements gathered from unrelated publications.
Each numbered part is a random draw from the data of one study; scales do not carry over between parts. Substitutions count along the parent as printed.

Series 1 — technique: DHFR PCA, deep sequencing; medium: yeast; together with: (+)-ABA 58 µM; relative to: wild-type fitted maximum; reading: higher = stronger binding
Target: ABI1, truncated, D143A, DHFR fusion (Arabidopsis thaliana)
Setting: methotrexate growth selection, single substitutions
Parent: PYL1, truncated, DHFR fusion (Arabidopsis thaliana); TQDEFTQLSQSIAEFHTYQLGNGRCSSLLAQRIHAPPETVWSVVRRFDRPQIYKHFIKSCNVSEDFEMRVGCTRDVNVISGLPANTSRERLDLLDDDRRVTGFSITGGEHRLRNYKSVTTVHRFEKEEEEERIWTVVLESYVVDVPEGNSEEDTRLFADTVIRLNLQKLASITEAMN
`R155N` — result for “relative binding score”: 64.1%.
`V145F`: “relative binding score” 11.6%.
For `G107Q`, “relative binding score” read 53.5%.
For `L82S`, “relative binding score” read 5.02%.
`N61I` — result for “relative binding score”: 84.2%.
For `S27L`, “relative binding score” read 6.22%.
`S150F`: “relative binding score” 27.8%.
For `S104C`, “relative binding score” read 53.1%.
Under “relative binding score”, `Y115N` is recorded as -0.464%.
For `S9K`, “relative binding score” read 102%.
Under “relative binding score”, `S87N` is recorded as 4.63%.
`T135P` — result for “relative binding score”: 6.78%.
`E128R` — result for “relative binding score”: 87.6%.
`E139L`: “relative binding score” 56%.
Under “relative binding score”, `N165L` is recorded as 1.52%.

Series 2 — target: CCNB3, cyclin fold, Cln2 fusion (human); technique: yeast growth competition, sequencing; medium: yeast; setting: weak parent motif; relative to: not given; reading: higher = stronger binding
Parent: PKMYT1 docking peptide (human); SFEPRNLLSLFED; partner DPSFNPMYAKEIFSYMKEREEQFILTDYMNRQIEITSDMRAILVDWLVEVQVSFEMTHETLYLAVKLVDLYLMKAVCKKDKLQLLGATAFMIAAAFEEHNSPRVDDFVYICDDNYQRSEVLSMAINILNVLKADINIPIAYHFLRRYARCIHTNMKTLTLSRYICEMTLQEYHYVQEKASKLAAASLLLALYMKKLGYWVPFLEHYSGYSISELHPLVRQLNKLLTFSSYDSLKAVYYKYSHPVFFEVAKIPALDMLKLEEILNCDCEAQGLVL
`SFEPRNLLSLWED [F11W]`: “normalised enrichment score” 1.19.
For `SFEPRNLFSLFED [L8F]`, “normalised enrichment score” read 0.621.
For `SFNPRNLLSLFED [E3N]`, “normalised enrichment score” read 0.428.
`HFEPRNLLSLFED [S1H]`: “normalised enrichment score” 0.0364.
For `SFEPRNLLSLNED [F11N]`, “normalised enrichment score” read -0.016.
`SFENRNLLSLFED [P4N]`: “normalised enrichment score” 0.00104.
`SFCPRNLLSLFED [E3C]` — result for “normalised enrichment score”: 0.571.
`SFEPRPLLSLFED [N6P]` — result for “normalised enrichment score”: 0.346.
`SFERRNLLSLFED [P4R]`: “normalised enrichment score” 0.408.
`SFEHRNLLSLFED [P4H]`: “normalised enrichment score” 0.012.
Under “normalised enrichment score”, `SFEPRNLVSLFED [L8V]` is recorded as -0.334.
`SFEPRNLLSQFED [L10Q]` — result for “normalised enrichment score”: 0.794.
`SFEPRNFLSLFED [L7F]` — result for “normalised enrichment score”: 0.63.
`SFEPRNLLSLFLD [E12L]` — result for “normalised enrichment score”: 0.122.
For `SFEPRNLYSLFED [L8Y]`, “normalised enrichment score” read 0.534.
`SFEPRNLLSLFEI [D13I]` — result for “normalised enrichment score”: 0.843.
For `SFEPRNLLSLFKD [E12K]`, “normalised enrichment score” read 0.194.
`SFEPTNLLSLFED [R5T]`: “normalised enrichment score” 0.483.
Under “normalised enrichment score”, `SFEQRNLLSLFED [P4Q]` is recorded as 0.803.
For `SFHPRNLLSLFED [E3H]`, “normalised enrichment score” read 0.555.
`SFEPRNLLSLFEQ [D13Q]` — result for “normalised enrichment score”: 0.225.

Series 3 — target: JDP2, bZIP domain (human); technique: DHFR protein complementation; medium: yeast; relative to: wild-type JUN-FOS pair; reading: higher = stronger binding
Setting: single substitutions, most at no-binding floor
Parent: JUN, bZIP domain (human); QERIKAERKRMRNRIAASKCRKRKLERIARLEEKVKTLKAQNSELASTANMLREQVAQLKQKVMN; partner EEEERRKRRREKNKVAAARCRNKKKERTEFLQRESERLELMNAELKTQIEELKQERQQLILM
`Q41N` gave a binding fitness of 0.185 natural log.
With `V35E` the binding fitness was -0.0337 natural log.
`Q41G` gave a binding fitness of 0.108 natural log.
The binding fitness of `A57V` is reported as 0.29 natural log.
With `E32D` the binding fitness was 0.352 natural log.
The binding fitness of `A49K` is reported as 0.212 natural log.
For `L45E`, the binding fitness was -0.296 natural log.
`R30N` gave a binding fitness of 0.243 natural log.
The binding fitness of `V56K` is reported as -0.356 natural log.
`E54V` has a binding fitness of 0.177 natural log.
With `R30K` the binding fitness was 0.181 natural log.
With `A49H` the binding fitness was 0.21 natural log.
`I28E` has a binding fitness of 0.234 natural log.
`Q55R` gave a binding fitness of 0.216 natural log.
The binding fitness of `K39G` is reported as 0.277 natural log.
`Q55N` has a binding fitness of 0.256 natural log.
The binding fitness of `L38E` is reported as 0.0635 natural log.
The binding fitness of `S47I` is reported as 0.255 natural log.

Series 4 — technique: RNA Bind-n-Seq; molecule type: RNA; medium: in vitro; concentration: not given; relative to: input RNA pool; reading: higher = stronger binding
Target: RING finger protein unkempt homolog, zinc fingers 1-6, GST-SBP tag (UNK, Homo sapiens, UniProt Q9C0B0, residues 30-357)
Chain of UniProt Q9C0B0 (30-357, looked up): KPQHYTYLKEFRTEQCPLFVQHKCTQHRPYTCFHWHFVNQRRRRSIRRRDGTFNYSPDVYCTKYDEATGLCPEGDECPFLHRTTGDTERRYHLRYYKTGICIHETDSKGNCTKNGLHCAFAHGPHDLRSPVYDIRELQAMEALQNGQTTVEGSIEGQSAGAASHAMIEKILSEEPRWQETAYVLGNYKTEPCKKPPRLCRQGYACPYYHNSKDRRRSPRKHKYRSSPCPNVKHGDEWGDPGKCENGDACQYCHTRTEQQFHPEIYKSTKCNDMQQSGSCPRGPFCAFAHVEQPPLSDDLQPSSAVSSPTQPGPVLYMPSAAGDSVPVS
Setting: RNA with constant flanks, human-mouse chimeric sites, ends assumed
Shared flanks, not repeated: GGGAGUUCUACAGUCCGACGAUC … CAACAGAGGAUUGAGCAUCA
For `CUGUGUGGCUUACUAAAAUGGCUUGUAAGAACUGUCCUCCAAGCUGUAACCCAUGCUGUUAUUAUAGUUGCUGCAAAAUGUUCUUCCUGAUAUUGAUUUUAUUUGUUAACUGAAGGUCUC`, the bound/input enrichment was 0.414 ratio.
`CGCUUGGAUGAGGCUGGUGUCACAGAUGAAGUGCUAGAUUCUGCCAUGCAAGCCUUCCUUCUGGAGGUCAUUGUUAAACAUGGGGAGCCGGCACCUUAUUUAUGUAACAAAGAUCCGUUU` gave a bound/input enrichment of 0.1 ratio.
`AGAAAGCAAAACUUGGAACGAUUUAAGAAAGGAGACGUAAGAUUCUUGAUUUGCACAGAUGUAGCUGCUAGAGGGAUUGAUAUCCACGGCGUUCCUUAUGUGAUCAACGUCACCCUGCCU` has a bound/input enrichment of 0.171 ratio.
`CAGCCUCAGAGCCCAGACUUCCUGGAUAUCACCAACCCUAAAGCGGUAUUAGAAAAUGCAUUGAGAAACUUCGCCUGUCUGACGACUGGGGAUGUGAUUGCUAUCAACUACAAUGAGAAG` gave a bound/input enrichment of 0.583 ratio.
With `GUGACUGACAUUAAAAUUUCCCCUCAGCAAAGAAGUGCAGUAGUCACCAUAAUUCCAUCUGUGGUGAGUGCCAGUCAGAUAAAAGAGCUGGUCCCAGACCUCAGUUUAGACAUGGGAACU` the bound/input enrichment was 0.356 ratio.
`CAGCUGCAGACAGAAAAGGAUGAGAAGGAGCUGUAUAAGGUACAUUUGAAGAAUACAGAAAUAGAAAAUACGAAGCUUGUGUCAGAGAUACAGACUUUAAAAAAUUUAGAUGGAAACAAA` gave a bound/input enrichment of 2.94 ratio.
With `CUGAGGAUACCACUGAAGAGACCUUAAAAGAAUCAUUUGAGGGCUCUGUUCGUGCAAGAAUAGUCACUGAUCGGGAAAACUGGGUCCUCCAAAGGGUUGGUUUUGUAGACUUUAAUAGUG` the bound/input enrichment was 1.26 ratio.
`CCAAUUGUGGAGCAGUACUUGAAGACAAAGAAAAAUUCUAAUAAUUUAAUCAUGAAAUACAUUAGCUGCCGCCUGCUGACACUCAUCAUUAUACUGUUGGCAUGUAUCUACCUGGGCUAU` has a bound/input enrichment of 0.495 ratio.
For `UUCUAGUGAAUCUGUGAUAUUGGCAAUUAUUAUUAUGGCCAGGGUCAUCCCAUGAAGCCUCAUAGAAUCCGGAUGACUCAUAACUUGCUGCUAAAUUAUGGUUUAUACCGAAAAAUGGAA`, the bound/input enrichment was 0.295 ratio.
`CGCUGGCCCAAGCUGAUGGACUCUGAUCUUGAUCUCUUCUCAGGCACGUGUGCCUUCUCUUAGUCCCUUCUGGGUUGAUGUUAUGAAUCUCAGUACUGUGGUUUGAAAGCACCAGCUUUG` has a bound/input enrichment of 0.389 ratio.
The bound/input enrichment of `GUAGCUGGGACUACAGAAAUGCUGGUAAUUUCAGUCACUUGCUGAUGACUUCUGAUGUCCCAGCAAAUAAUGCCACAGUUGACUGCUGAGAAGAUACUUCUGAGGACAUACAGCAGUGGU` is reported as 0.141 ratio.

Series 5 — technique: protein binding microarray; molecule type: double-stranded DNA, one strand shown; medium: in vitro; concentration: not given; relative to: not given; reading: higher = stronger binding
Target: Histone acetyltransferase KAT6A, winged helix 2, GST fusion (KAT6A, Homo sapiens, UniProt Q92794, residues 85-181)
Setting: 8-mer, flanks averaged, mean of 2 arrays, mostly near background
Construct (chain): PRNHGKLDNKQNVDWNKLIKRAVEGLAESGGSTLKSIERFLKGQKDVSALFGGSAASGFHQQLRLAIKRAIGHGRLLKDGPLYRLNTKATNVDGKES
With `CTCCCAAG` the E-score was 0.0777.
The E-score of `GTTCGATA` is reported as 0.0385.
`CGTCGGCC` has an E-score of 0.209.
`CCAATGCC` has an E-score of -0.18.
With `GCAATAGA` the E-score was -0.246.
`CACTTGCG` gave an E-score of 0.0451.
The E-score of `GTTTGTTA` is reported as 0.217.
`ATTCTCCA` gave an E-score of 0.129.
With `CCCCTTCA` the E-score was -0.197.
`AAAGGCTC` has an E-score of -0.0229.
For `CGCGTCTC`, the E-score was 0.0424.
`TACGGCCA` has an E-score of -0.0427.
With `ATCCCCTG` the E-score was -0.0419.
The E-score of `CTCTCAGC` is reported as -0.22.
For `ACGATTTA`, the E-score was -0.0925.
With `GGGGGCAA` the E-score was 0.132.
The E-score of `AAATTACA` is reported as 0.00498.
`GTGCACAA` has an E-score of -0.0738.
With `TATTCTAA` the E-score was 0.0662.
The E-score of `AGTCCGCG` is reported as 0.0887.
`GATGTCGA` gave an E-score of 0.0537.
`AACTTGTG` gave an E-score of 0.114.
`AGGCACCA` has an E-score of 0.0192.
With `CTGATAAA` the E-score was 0.121.
For `AATGCCAG`, the E-score was 0.0258.

Series 6 — target: UBE2B UBC core domain (UniProt P63146); technique: yeast two-hybrid; medium: yeast; setting: mostly zero background; relative to: not given; reading: higher = stronger interaction
Chain of UniProt P63146 (whole entry, looked up): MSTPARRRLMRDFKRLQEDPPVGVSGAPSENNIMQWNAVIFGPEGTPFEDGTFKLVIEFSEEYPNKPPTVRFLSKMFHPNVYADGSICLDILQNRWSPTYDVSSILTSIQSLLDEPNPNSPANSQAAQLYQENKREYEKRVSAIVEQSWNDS
B1: TRIM4 RING domain (UniProt Q9C037); chain EAEDIQEELTCPICLDYFQDPVSIECGHNFCRGCLHRNWAPGGGPFPCPECRHPSAPAALRP
B2: SH3RF2 RING domain (UniProt Q8TEC5); chain DDLTLLDLLECPVCFEKLDVTAKVLPCQHTFCKPCLQRVFKAHKELRCPECRTPVFSNIEAL
B3: VPS41 RING domain (UniProt P49754); chain KGVLVDEENICESCLSPILPSDAAKPFSVVVFHCRHMFHKECLPMPSMNSAAQFCNICSAKNRGPGSAI
B4: MKRN1 RING domain (UniProt Q9UHC7); chain FAVQRSKDMVCGICMEVVYEKANPSERRFGILSNCNHTYCLKCIRKWRSAKQFESKIIKSCPECRITSNFVIPSE
B5: TRIML1 RING domain (UniProt Q8N9V2); chain LMENLREELTCFICLDYFSSPVTTECGHSFCLVCLLRSWEEHNTPLSCPECWRTLEGPHFQS
B6: TRIM43 RING domain (UniProt Q96BQ3); chain FSHAFQKELTCVICLNYLVDPVTICCGHSFCRPCLCLSWEEAQSPANCPACREPSPKMDFKT
B7: RNF208 RING domain (UniProt Q9H0X6); chain SSAAAGEPLECPTCGHSYNVTQRRPRVLSCLHSVCEQCLQILYESCPKYKFISCPTCRRETVLFTDYG
`B1 (TRIM4 RING domain)`: “lacZ reporter activity” 0.
`B2 (SH3RF2 RING domain)`: “lacZ reporter activity” 0.
For `B3 (VPS41 RING domain)`, “lacZ reporter activity” read 0.
`MPIRALCTICSDFFDHSRDVAAIHCGHTFHLQCLIQWFETAPSRTCPQCRIQVGKRTIIN (TRAIP RING domain (UniProt Q9BWF2))` — result for “lacZ reporter activity”: 0.
Under “lacZ reporter activity”, `DHGAVGQEMCCPICCSEYVKGEVATELPCHHYFHKPCVSIWLQKSGTCPVCRCMFPPPL (PJA1 RING domain (UniProt Q8NG27))` is recorded as 0.
`B4 (MKRN1 RING domain)`: “lacZ reporter activity” 0.
`B5 (TRIML1 RING domain)`: “lacZ reporter activity” 0.
`GAAPGPEAAECLVCSELALLVLFSPCQHRTVCEECARRMKKCIRCQVVVSKKLRPD (MIB2 RING domain (UniProt Q96AX9))` — result for “lacZ reporter activity”: 0.
Under “lacZ reporter activity”, `B6 (TRIM43 RING domain)` is recorded as 0.
`B7 (RNF208 RING domain)` — result for “lacZ reporter activity”: 0.
